# Published values from different studies.
# Every numbered part comes from another study and shows a few of its results, in no order. Substitutions count along the parent as printed.

# Study 1 — technique: DHFR PCA, deep sequencing; sample: yeast; with: (+)-ABA 4.8 µM; reference: wild-type fitted maximum; reading: higher = stronger binding
# Target: ABI1, truncated, D143A, DHFR fusion (Arabidopsis thaliana)
# Setting: methotrexate growth selection, single substitutions
# Starting sequence: PYL1, truncated, DHFR fusion (Arabidopsis thaliana); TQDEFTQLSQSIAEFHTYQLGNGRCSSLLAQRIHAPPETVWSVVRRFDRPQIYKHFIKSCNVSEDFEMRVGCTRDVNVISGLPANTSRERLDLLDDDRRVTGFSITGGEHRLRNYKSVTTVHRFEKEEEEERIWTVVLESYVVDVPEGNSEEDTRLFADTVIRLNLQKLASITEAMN; partner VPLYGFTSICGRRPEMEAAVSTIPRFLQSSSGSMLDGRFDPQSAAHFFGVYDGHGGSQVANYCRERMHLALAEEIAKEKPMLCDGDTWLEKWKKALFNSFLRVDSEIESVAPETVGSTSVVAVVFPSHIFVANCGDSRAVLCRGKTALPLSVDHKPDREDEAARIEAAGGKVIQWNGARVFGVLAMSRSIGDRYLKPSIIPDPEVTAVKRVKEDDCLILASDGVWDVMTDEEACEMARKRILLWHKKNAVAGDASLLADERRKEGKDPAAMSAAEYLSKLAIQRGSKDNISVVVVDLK
Substitution,relative binding score
L94K,-6.83%
K126W,61%
V62L,66.9%
P146L,7.39%
Q19V,70.2%
E67P,58.7%
N77F,75.8%
I33T,0.934%
W41Q,-0.908%
D48E,38.5%
P36W,5.43%
K54Y,-2.77%
L8S,11.7%
E127Q,83.6%
L28T,30.8%
D48T,1.94%

# Study 2 — technique: competition protein-binding microarray; molecule type: double-stranded DNA, one strand shown; sample: in vitro; concentration: 2 µM; with: Pho4 competitor, 0.05 µM; reading: higher = stronger binding; constant ends, left off below: … GTCTTGATTCGCTTGACGCTGCTG
# Target: Centromere-binding protein 1, full length, His-tagged (CBF1, Saccharomyces cerevisiae, UniProt P17106, residues 1-351)
# Chain of UniProt P17106 (whole entry, looked up): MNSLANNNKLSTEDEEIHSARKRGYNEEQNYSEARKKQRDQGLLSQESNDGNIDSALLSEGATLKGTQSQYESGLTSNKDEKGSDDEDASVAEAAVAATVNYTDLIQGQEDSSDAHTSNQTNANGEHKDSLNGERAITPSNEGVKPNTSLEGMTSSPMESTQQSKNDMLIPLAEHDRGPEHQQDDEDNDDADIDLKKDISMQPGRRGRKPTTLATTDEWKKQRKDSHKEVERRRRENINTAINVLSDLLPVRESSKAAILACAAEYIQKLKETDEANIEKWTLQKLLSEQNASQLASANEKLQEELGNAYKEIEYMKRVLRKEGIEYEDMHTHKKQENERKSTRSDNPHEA
# Setting: whole 60-bp probe, lowest competitor level
Strand,fluorescence intensity [a.u.]
AAAGCGGTAATTTGACGGGTGGGTGCAGATATCTAT,83.7
CTAACGAAGGTTTGTGCCGTGGGTGACAAGCCAAGT,64.6
AAATTACTAAGTTGTCACAACACTTACCCCGTATGA,111
GAAATAAAGGGAACACACGTGAAATTGAAGGACAGC,754
TGAACCCTTACTTACTGCGTGACTCGGTTGATTTAG,169
CTAACGAAGGTTTGTACCGTGGGTGACAAGCCAAGT,64.5
CAATTTACATGTTCCAACGTGACTCGAGAAAGCATG,675
AAATTACTAAGTTGCGTGGTGGGTGACGCCGTATGA,67.6
GGGTGTTTTAAAAAGCACCTGACTTTTTCAATTGAA,948
CGTTATATTTCCGACGTCGTGCGATAGTTTCTGCGC,85.4
TTATCGGTCTCGAGTCACGTGCGGAGACGCGGAGGC,6160
CTTTCCCGATCTTGGTGTGTGGGTGTAGCACATTTG,80
AAAGCGGTAATTTTTCACGTGTCGTCAAATATCTAT,1690
AAATTACTAAGTTGATCCGTGGGTGACGCCGTATGA,62.9
GCGTAGACGGATTTGCACGATGCGATGATAAATATT,71.3
CTTCCAAGGTGAGGACACGGGTTCGATTCTCGTACC,92.3
TGCGCAACAACTTGGAGAGTGGGTGTATGTCTAGAA,64.1
GGGTACGGACCCCGTCACGTAAGACGATGCCGATGC,62.9
GCTGCGGCGGAAAAAAACGTGACGGCTTTTAGCACA,951
AAAGCGGTAATTTTTCACGTGATATCAAATATCTAT,6120
TCGAACAGCCAAGTTTGCGTGGTTACAAGATAAAAT,73.7
GGAGAAGTTACTGTACACATGAAAACACGAATAACT,95
TGCGCAACAACTTGTCGAGTGGGTGTATGTCTAGAA,67.2
GTAACGACTCTCTATCAGGTGCTGTTATTGCAGCGA,133

# Study 3 — target: UBE2G1 UBC core domain (UniProt P62253); technique: yeast two-hybrid; sample: yeast; setting: mostly zero background; reference: not given; reading: higher = stronger interaction
# Chain of UniProt P62253 (whole entry, looked up): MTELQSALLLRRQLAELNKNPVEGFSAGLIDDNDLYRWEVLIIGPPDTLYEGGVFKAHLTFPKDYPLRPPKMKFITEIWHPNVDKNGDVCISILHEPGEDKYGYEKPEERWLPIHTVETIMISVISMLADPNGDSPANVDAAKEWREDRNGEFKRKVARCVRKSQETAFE
# B1: MKRN2 RING domain (UniProt Q9H000); chain FAFQASQDKVCSICMEVILEKASASERRFGILSNCNHTYCLSCIRQWRCAKQFENPIIKSCPECRVISEFVIPSV
# B2: RNF152 RING domain (UniProt Q8N8N0); chain ETLSQDSLLECQICFNYYSPRRRPKLLDCKHTCCSVCLQQMRTSQKDVRCPWCRGVTKLPPGFS
# B3: RNF166 RING domain (UniProt Q96A37); chain GDSGLEAQYTCPICLEVYHRPVAIGSCGHTFCGECLQPCLQVPSPLCPLCRLPFDPKKVDK
# B4: TRIM31 RING domain (UniProt Q9BZY9); chain FVNKLQEEVICPICLDILQKPVTIDCGHNFCLKCITQIGETSCGFFKCPLCKTSVRKNAIRF
# B5: DEF8 RING domain (UniProt Q6ZN54); chain AGRLGCSLTEIHTLFAKHIKLDCERCQAKGFVCELCREGDVLFPFDSHTSVCADCSAVFHRDCYYDNSTTCPKCARLSLRK
# B6: TRIM26 RING domain (UniProt Q12899); chain PLRSLEEEVTCSICLDYLRDPVTIDCGHVFCRSCTTDVRPISGSRPVCPLCKKPFKKENIRP
# B7: MYCBP2 RING domain (UniProt O75592); chain TSLKQDADDMCMICFTEALSAAPAIQLDCSHIFHLQCCRRVLENRWLGPRITFGFISCPICKNKINHIVLKD
# B8: TRIM54 RING domain (UniProt Q9BYV2); chain SMDNLEKQLICPICLEMFSKPVVILPCQHNLCRKCANDVFQASNPLWQSRGSTTVSSGGRFRCPSCRHEVVLDRHGV
# B9: TRIM22 RING domain (UniProt Q8IYM9); chain VKVDIEKEVTCPICLELLTEPLSLDCGHSFCQACITAKIKESVIISRGESSCPVCQTRFQPGNLRP
# B10: ANAPC11 RING domain (UniProt Q9NYG5); chain GICRMAFNGCCPDCKVPGDDCPLVWGQCSHCFHMHCILKWLHAQQVQQHCPMCRQEWKFKE
# B11: RNF122 RING domain (UniProt Q9H9V4); chain AKKLQLYGQTCAVCLEDFKGKDELGVLPCQHAFHRKCLVKWLEVRCVCPMCNKPIASPSEAT
# B12: MEX3B RING domain (UniProt Q6ZN04); chain SGLRRKGSRDCSVCFESEVIAALVPCGHNLFCMECANRICEKSEPECPVCHTAVTQAIRIF
Sequence,lacZ reporter activity
B1 (MKRN2 RING domain),0
B2 (RNF152 RING domain),0
YCEMGSTFQLCKICAENDKDVKIEPCGHLMCTSCLTAWQESDGQGCPFCRCEIKGTEPII (CBLB RING domain (UniProt Q13191)),0
MNDVLENELQCIICSEYFIEAVTLNCAHSFCSYCINEWMKRKIECPICRKDIKSKTYSL (RNF8 RING domain (UniProt O76064)),0
QVQSRTKIEECVVCSDKKAAVLFQPCGHMCACENCANLMKKCVQCRAVVERRVPFI (MIB1 RING domain (UniProt Q86YT6)),0
B3 (RNF166 RING domain),0
B4 (TRIM31 RING domain),0
B5 (DEF8 RING domain),0
B6 (TRIM26 RING domain),0
B7 (MYCBP2 RING domain),0
B8 (TRIM54 RING domain),0
B9 (TRIM22 RING domain),0
B10 (ANAPC11 RING domain),0
B11 (RNF122 RING domain),0
B12 (MEX3B RING domain),0
FVKTVEDKYKCEKCHLVLCSPKQTECGHRFCESCMAALLSSSSPKCTACQESIVKDKVF (TRAF3 RING domain (UniProt Q13114)),0

# Study 4 — target: CCND3, cyclin fold, Cln2 fusion (human); technique: yeast growth competition, sequencing; sample: yeast; setting: weak parent motif; reference: not given; reading: higher = stronger binding
# Starting sequence: CDC25A docking peptide (human); PPHRRRLLFACSP
Substitution,normalised enrichment score
PPHERRLLFACSP [R4E],0.0535
PPHRRRLLFNCSP [A10N],0.131
TPHRRRLLFACSP [P1T],0.0895
PPHRRRLGFACSP [L8G],0.151
PPHRRRLLFACGP [S12G],0.136
PPHRRRCLFACSP [L7C],0.147
PPHRRRLLKACSP [F9K],0.156
PPHRRRLLFACSL [P13L],0.117
PPHRRFLLFACSP [R6F],0.0937
PPHRRRLLFAASP [C11A],0.177
PPHRNRLLFACSP [R5N],0.00832
PPHRRRLLFACNP [S12N],0.197
PPHRRRALFACSP [L7A],0.181
PQHRRRLLFACSP [P2Q],0.215
PCHRRRLLFACSP [P2C],0.221
PPHRRRILFACSP [L7I],0.179
PPHRRRRLFACSP [L7R],0.0893
PPHRRLLLFACSP [R6L],0.121

# Study 5 — technique: protein-binding microarray; molecule type: double-stranded DNA, one strand shown; sample: in vitro; concentration: 250 nM; setting: 60-bp whole probe; with: salmon DNA 0.4 mg/ml; reference: random background probes; reading: higher = stronger binding; constant ends, left off below: GCCTAGCAC … GTCTTGATTCGCTTGACGCTGCTG
# Target: Interferon regulatory factor 5, full length, phosphomimetic (IRF5, Homo sapiens, UniProt Q13568-2, residues 1-514, K96S/S451D/S453D/S456D/S462D)
Strand,log fluorescence [z-score]
TTAGATTTCAGACTGTATTAGTGCTAG,0.618
TTAGGTATCGATTATCGGTTAGTGCTA,8.43
GACGGTATCGACAATCGGGACGTGCTA,1.85
GACGAATTCAGTATCGAGACGTGCTAG,2.84
TGAGGTATCGGTCTCGGTTAGTGCTAG,4.53
TCACATTTTTTTATCAAACTGTGCTAG,0.992
GACGATTTCTGACTGGAGACGTGCTAG,0.259
TCATGCTTTCCTTTATGACTGTGCTAG,0.896
ATATATATCCATTATAGATGGTGCTAG,0.364
TTAGGTTTACTTTCCCTTTAGTGCTAG,2.74
TTACGACTGGGGTATCGGTTAGTGCTA,3.28
GACGGTTCACTTTTCCTGACGTGCTAG,0.289
TTAGGACTGGGTCTAGGTTAGTGCTAG,-0.83
GACGAACTGGGGTCTGGAGACGTGCTA,-0.419
TCGTGGATTGCGACCCCTAGGTGCTAG,-0.284
TTAGGTCTCGGACTGGATTAGTGCTAG,-0.322
TTAGATTTCAGTATCGGTTAGTGCTAG,9.03

# Repeated from above (study 2):
Strand,fluorescence intensity [a.u.]
CTTTCCCGATCTTGGTGTGTGGGTGTAGCACATTTG,80
GAAATAAAGGGAACACACGTGAAATTGAAGGACAGC,754
CTAACGAAGGTTTGTACCGTGGGTGACAAGCCAAGT,64.5
AAAGCGGTAATTTGACGGGTGGGTGCAGATATCTAT,83.7
TTATCGGTCTCGAGTCACGTGCGGAGACGCGGAGGC,6160
TCGAACAGCCAAGTTTGCGTGGTTACAAGATAAAAT,73.7
